# Measured values collected from several papers.
# ± marks the error that the study gave.
# Organism: Staphylococcus aureus
SMILES,test,system,setting,scale,measurement,result
CCCCCCCCCCCCCCCC(=O)NCCCC[C@H](NC(=O)[C@H](CCCNC(=N)N)NC(=O)[C@H](Cc1ccc(O)cc1)NC(=O)[C@H](CC(C)C)NC(=O)[C@H](CCCNC(=N)N)NC(=O)CNS(=O)(=O)c1ccc(N)cc1)C(N)=O,,"ATCC 25923, C57BL/6 mouse, pneumonia model","intratracheal, 2 mg/kg",,survival rate,100%
CCOC(=O)c1cnc(N/N=C/c2c(-c3ccc(F)cc3)nc3ncccn23)s1,"microbial growth, well diffusion",ATCC23235,100 µg/mL,,inhibition zone,12 mm
C=Cc1cc(OC)c2c(c1)c(=O)oc1c2cc(OC)c2c(O)ccc([C@@H]3O[C@H](C)[C@H](O)[C@@](C)(O)[C@H]3O)c21,,"MRSA USA300, mouse epicutaneous infection","1 mg/kg, day 6",,bacterial burden decrease,~1.5 log10 per wound
CCCCCCCCCC(=O)N[C@@H](Cc1c[nH]c2ccccc12)C(=O)N[C@H](CC(N)=O)C(=O)N[C@@H](CC(=O)O)C(=O)N[C@@H]1C(=O)NCC(=O)N[C@@H](CCCNC(=O)OC2/C=C/CCCCC2)C(=O)N[C@@H](CC(=O)O)C(=O)N[C@H](C)C(=O)N[C@@H](CC(=O)O)C(=O)NCC(=O)N[C@H](CO)C(=O)N[C@@H]([C@H](C)CC(=O)O)C(=O)N[C@@H](CC(=O)c2ccccc2N)C(=O)O[C@@H]1C (stereo partly shown),,"MRSA biofilm, porous glass beads","24 h, 37 °C, UG gel",,MBEC,> 256 µg/mL
CC[C@H](C)[C@H](NC(=O)[C@H](CCCCN)NC(=O)[C@H](CCCCN)NC(=O)[C@H](CC(C)C)NC(=O)[C@H](CCCCN)NC(=O)[C@H](CCC(=O)O)NC(=O)[C@H](CCCCN)NC(=O)[C@@H](NC(=O)[C@H](CCCCN)NC(=O)[C@H](CC(N)=O)NC(=O)[C@H](CCCNC(=N)N)NC(=O)[C@H](Cc1ccccc1)NC(=O)[C@H](CCCCN)NC(=O)[C@H](CCCNC(=N)N)NC(=O)[C@H](CC(C)C)NC(=O)[C@H](CCCNC(=N)N)NC(=O)[C@H](CCCCN)NC(=O)[C@H](CCCNC(=N)N)NC(=O)[C@H](CC(C)C)NC(=O)[C@@H](N)CC(C)C)[C@@H](C)CC)C(=O)NCC(=O)N[C@@H](CCC(N)=O)C(=O)N[C@@H](CCCCN)C(=O)N[C@H](C(=O)N[C@@H](CCC(N)=O)C(=O)NCC(=O)N[C@@H](Cc1ccccc1)C(=O)N[C@H](C(=O)N1CCC[C@H]1C(=O)N[C@@H](CCCCN)C(=O)N[C@@H](CC(C)C)C(=O)N[C@H](C(=O)N1CCC[C@H]1C(=O)N[C@@H](CCCNC(=N)N)C(=O)N[C@H](C(=O)N[C@@H](CCC(=O)O)C(=O)N[C@@H](CO)C(=O)O)[C@@H](C)O)C(C)C)C(C)C)[C@@H](C)CC,inhibition zone,penicillin-resistant P1383,,,lethal concentration,1.74 µM
CCCCc1ccc(-c2nc(C)c(C(C)=NNC(=N)N)s2)cc1,,NRS1 VISA,,,MBC,2.6 µg/mL
CC[C@H](C)[C@@H]1NC(=O)[C@H](CCC(N)=O)NC(=O)[C@H](CCC(=O)O)NC(=O)[C@H](CCC(=O)O)NC(=O)[C@H](CCCCN)NC(=O)[C@@H]2CCCN2C(=O)[C@H](CC(C)C)NC(=O)[C@@H](NC(=O)[C@@H](N)CO)CSSC[C@@H](C(=O)N[C@@H](CCCNC(=N)N)C(=O)N[C@@H](CCCNC(=N)N)C(=O)N[C@@H](CCCCN)C(=O)N[C@@H](CCCCN)C(=O)O)NC(=O)[C@H](CCCCN)NC(=O)[C@H](CCCNC(=N)N)NC(=O)CNC(=O)[C@H](CCCNC(=N)N)NC(=O)[C@H]([C@@H](C)O)NC(=O)[C@H](CO)NC(=O)[C@H](CCCCN)NC(=O)CNC1=O,,ATCC 8530,"MBC, 2 h, pH 7.4, 37 °C, added: LPS Escherichia coli 026:B6, peptide:LPS 1:1 w/w",,antibacterial activity,no inhibition
CC(CCC(=O)[O-])C1CCC2C3CCC4CC(O)CCC4(C)C3CC(O)C12C.C[N+](C)(C)CC(O)CC(=O)O (stereo not shown),,TISTR 746,"1 mg per disc, 18 to 24 h, 37 °C, 6 mm disc",,inhibition zone diameter,10.8 ± 2.5 mm
CC[C@H](C)[C@H](NC(=O)[C@H](CCCN)NC(=O)[C@H](CC(N)=O)NC(=O)[C@H](Cc1c[nH]c2ccccc12)NC(=O)[C@H](Cc1ccccc1)NC(=O)[C@H](CCCN)NC(=O)[C@H](CCCCNC(=N)N)NC(=O)[C@H](CC(C)C)NC(=O)[C@H](Cc1c[nH]c2ccccc12)NC(=O)[C@H](CCCN)NC(=O)[C@H](CCCCNC(=N)N)NC(=O)[C@H](CC(C)C)NC(=O)CNC(C)=O)C(=O)N[C@@H](CCCN)C(=O)N[C@@H](CCCCNC(=N)N)C(N)=O,,,"1/2 x MIC, established biofilm",,biofilm cells killed,> 50%
CC[C@H](C)[C@H](NC(=O)[C@H](CCCCN)NC(=O)[C@H](CCCCN)NC(=O)[C@H](Cc1c[nH]c2ccccc12)NC(=O)[C@H](CC(N)=O)NC(=O)[C@@H](NC(=O)COCCOCCOCCOCCOCCOCCOC(=O)NCCCCCCNC(=O)NCCCCCCNC(=O)Nc1nc(=O)cc(C)[nH]1)C(C)C)C(=O)N[C@@H](CC(C)C)C(=O)NCC(=O)N[C@@H](CCCCN)C(=O)N[C@H](C(=O)N[C@H](C(=O)N[C@@H](CCCCN)C(=O)N[C@H](C(=O)N[C@H](C(=O)N[C@@H](CCCCN)C(N)=O)C(C)C)C(C)C)[C@@H](C)CC)[C@@H](C)CC,,"MRSA AMC 201, RPMI medium","24 h, 37 °C",,LC99.9,7.5 µM
CC[C@H](C)[C@H](NC(=O)CNC(=O)CNC(=O)[C@H](CO)NC(=O)[C@@H](NC(=O)[C@H](CCCCN)NC(=O)[C@H](CO)NC(=O)[C@H](CC(C)C)NC(=O)[C@H](CCC(=O)O)NC(=O)[C@@H](NC(=O)[C@H](CCC(=O)O)NC(=O)[C@H](CC(N)=O)NC(=O)[C@H](CC(C)C)NC(=O)[C@H](CCCCN)NC(=O)[C@H](CC(N)=O)NC(=O)[C@@H](N)CCSC)C(C)C)[C@@H](C)CC)C(=O)NCC(=O)N1CCC[C@H]1C(=O)N[C@@H](CC(C)C)C(=O)N[C@H](C(=O)N[C@H](C(=O)N1CCC[C@H]1C(=O)N[C@H](C(=O)N[C@@H](C)C(=O)N[C@@H](C)C(=O)N[C@H](C(=O)N[C@@H](CC(C)C)C(=O)NCC(=O)N[C@@H](Cc1ccccc1)C(=O)N[C@@H](CC(C)C)C(=O)N[C@@H](C)C(=O)N[C@H](C(=O)N[C@@H](CC(=O)O)C(=O)N[C@@H](C)C(=O)N[C@@H](Cc1c[nH]c2ccccc12)C(=O)N[C@@H](CC(N)=O)C(=O)N[C@@H](Cc1c[nH]cn1)C(=O)N[C@@H](C)C(=O)N[C@@H](CC(=O)O)C(=O)N[C@@H](CCC(=O)O)C(=O)N[C@@H](CC(C)C)C(=O)N[C@H](C(=O)N[C@@H](C)C(=O)NCC(=O)N[C@H](C(=O)N[C@@H](CCCCN)C(=O)N[C@@H](CCC(N)=O)C(=O)NCC(=O)N[C@@H](Cc1c[nH]c2ccccc12)C(=O)N[C@@H](CCC(=O)O)C(=O)N[C@@H](CCCNC(=N)N)C(=O)N[C@@H](CO)C(=O)O)C(C)C)C(C)C)[C@@H](C)O)[C@@H](C)CC)C(C)C)[C@@H](C)CC)C(C)C,,ATCC 25923,"MIC, 2 h",,log reduction in CFU,2 log
CC[C@@](C)(NC)C(=O)NC(C)(C)C(=O)NC(C)(C)C(=O)NC(C)(C)C(=O)NCC(=O)NC(C)(C)C(=O)N1CCC[C@@H]1C(=O)N[C@@H](Cc1c[nH]c2ccccc12)C(=O)NC(C)(C)C(=O)N1C[C@H](O)C[C@@H]1C(=O)N[C@@H](C)C(=O)NC(C)(C)C(=O)NCCCC(=O)N[C@@H](CC(C)C)C(=O)N[C@](C)(CC)C(=O)NC(C)(C)C(=O)N[C@](C)(CC)C(=O)N[C@H](CO)Cc1ccccc1,,ATCC 29213,"1, 5, 10 µg/mL, 1 h, 37 °C",,total ATP level,decreased
CC(C)c1ccc2c(c1)CCC1C(C)(CN(CC(O)C[N+](C)(C)C)CC(O)C[N+](C)(C)C)CCCC21C (stereo not shown),,"MRSA ATCC BAA-44, mouse red blood cells",,relative to: HC50 over MIC,selectivity index,> 3.2
Fc1cc2nc3c4cccnc4c4ncccc4c3nc2cc1F.[Cl-].[Cl-].[Ru+2].c1ccncc1.c1ccncc1.c1ccncc1.c1ccncc1,,MRSA ATCC 43300,"10 µM, 20 min, added: light 470 nm",,CFU reduction,> 4 log CFU
CC(=O)N[C@H]1CNC(=O)[C@H](Cc2ccccc2)NC(=O)[C@H](Cc2ccccc2)NC(=O)COCCOCCNC1=O,reporter gene,AH1747,10 µM,relative to: DMSO,AgrC activity,inactive
N=C(N)NCCC[C@H](NC(=O)[C@H](Cc1c[nH]c2ccccc12)NC(=O)[C@H](CCCNC(=N)N)NC(=O)[C@H](CCCNC(=N)N)NC(=O)[C@@H]1CCCN1C(=O)[C@H](CCCCN)NC(=O)[C@@H](N)CCCNC(=N)N)C(=O)N[C@@H](Cc1c[nH]c2ccccc12)C(=O)N[C@@H](Cc1c[nH]c2ccccc12)C(=O)N1CCC[C@H]1C(=O)N[C@@H](CCCCN)C(=O)N[C@@H](CCCNC(=N)N)C(=O)N1CCC[C@H]1C(=O)O,"ELISA, measured: TNF-α","09057, BALB/c mice, sepsis model","intraperitoneal, 20 mg/kg, 12 h",relative to: saline,serum cytokine level,decreased
